Experimental data pooled from the literature.
A part holds a random share of what one study measured.

Sample 1 — method: RNA Bind-n-Seq; molecule type: RNA; matrix: in vitro; concentration: 365 nM; baseline: no-protein control; direction: higher = stronger binding
Target: RNA binding protein fox-1 homolog 2, RRM domain, GST-SBP tag (RBFOX2, Homo sapiens, UniProt O43251-10, residues 100-194)
Setting: natural RNA segment, single round, ends assumed
Residues (chain): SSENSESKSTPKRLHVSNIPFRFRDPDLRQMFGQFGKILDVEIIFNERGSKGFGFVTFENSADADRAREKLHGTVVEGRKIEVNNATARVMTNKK
For `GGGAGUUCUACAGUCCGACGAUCAGUCUUAAGGUGACUAAGAUUCACCUCAGCAGAGCCAAUCUUUUUGGGGGGAUGGGAGGGAGACUUAUAUUAGCAGGCUGCUCAUUGUACCACAGGAUACAUAUAGGUAGUGGAAUUCUCGGGUGCCAA`, “RBNS enrichment (R)” read 0.476.
Under “RBNS enrichment (R)”, `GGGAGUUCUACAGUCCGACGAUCCGCCCGUUGUGCGAGAACCACUUCCACGCACGACGCGGCUCGCUGUGCGCCACGUGUGGCCUCCCUGUGACCGGCCGCUGCGUGUCGGCCCUGGGUCGCCGCUUCCACCCUGGAAUUCUCGGGUGCCAA` is recorded as 0.256.
`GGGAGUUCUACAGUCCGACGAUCUCCAAGUCGAGAACACUUGAACACACAGAAGGGAGACCCCGCCUAGCAUAGAUUUGCAGUUACGGCCUGGAUGCCAGUCGCCAGCCCAGCUGUUCCCCUCGGGAACAUGAUGGAAUUCUCGGGUGCCAA` — result for “RBNS enrichment (R)”: 6.17.
`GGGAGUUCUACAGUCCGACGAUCUAACAUUAAGAUGAGCCCUAAUAUGUAAGAUUUUCCUCUGGAAUGGAUGUGAGAAAUGUAAAUUUUAUAACAGCAGUAUUUAUCCUGGUUUAAUUCUAAUACGAUGUCAUUGGAAUUCUCGGGUGCCAA` — result for “RBNS enrichment (R)”: 1.
`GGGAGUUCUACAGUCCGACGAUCCUCCCACAAAUAAGUUCCCAUUUCCUUGUCUAAAGAUCUUUUUUUAAGUGUUCUGUGGCUGAUUUACUAACAGUAACUGCCAUUUUUUGUCUGUGAUAACAGAGUGAUUUUGGAAUUCUCGGGUGCCAA` — result for “RBNS enrichment (R)”: 0.832.
`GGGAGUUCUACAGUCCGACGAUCUCUGCUGGCUUAGGGUGAGAAGUACCUCACAAUGGAUGUGAACAUUGGACAGAUUUUAGGAGCAUGAUGUUUGCCUCCUCCGAGAGAGAGGAGUCAGAGAGAGAGAGGAGUGGAAUUCUCGGGUGCCAA`: “RBNS enrichment (R)” 4.48.
Under “RBNS enrichment (R)”, `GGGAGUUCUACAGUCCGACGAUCUGAACUAACGUAUUCAAUAUUGAAUAUGUAGAUAUCAGUAGUCAAGUAGGAUAUUUCUUUAGAUUGCCACUUUUUUUAUUCCAGUUGUUUUAGGAAUAAAUGUCAGAUUUUGGAAUUCUCGGGUGCCAA` is recorded as 0.5.
`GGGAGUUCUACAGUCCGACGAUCGGAACAGGAACUCAGGGUGCCCUUACCCCCUCCCCAGACCUGUUCCCUUUCUUUGACUGACAGAGCACCAUCCAGGCAAAAUUAGAGCGCCAAAUGGUUUUCUUCUCAAUUGGAAUUCUCGGGUGCCAA` — result for “RBNS enrichment (R)”: 0.302.
`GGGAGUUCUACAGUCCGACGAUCGGUCCUGGAUUCUGUGAUGGUAUCAGCACCUGGACGGCCCCAGUCUAGAUUCAGCAAUGAAAAUCCACAAAGAUUCAGGAAAACUUUAGCUACAAAUACCUUAAAAAUGAUGGAAUUCUCGGGUGCCAA`: “RBNS enrichment (R)” 0.512.

Sample 2 — method: RNA Bind-n-Seq; molecule type: RNA; matrix: in vitro; concentration: 1 µM; setting: whole 134-nt RNA, ends assumed; with: 150 mM KCl; baseline: input library; direction: higher = stronger binding
Target: Ras GTPase-activating protein-binding protein 1, C-terminal RGG region (G3BP1, Homo sapiens, UniProt Q13283)
Chain of UniProt Q13283 (whole entry, looked up): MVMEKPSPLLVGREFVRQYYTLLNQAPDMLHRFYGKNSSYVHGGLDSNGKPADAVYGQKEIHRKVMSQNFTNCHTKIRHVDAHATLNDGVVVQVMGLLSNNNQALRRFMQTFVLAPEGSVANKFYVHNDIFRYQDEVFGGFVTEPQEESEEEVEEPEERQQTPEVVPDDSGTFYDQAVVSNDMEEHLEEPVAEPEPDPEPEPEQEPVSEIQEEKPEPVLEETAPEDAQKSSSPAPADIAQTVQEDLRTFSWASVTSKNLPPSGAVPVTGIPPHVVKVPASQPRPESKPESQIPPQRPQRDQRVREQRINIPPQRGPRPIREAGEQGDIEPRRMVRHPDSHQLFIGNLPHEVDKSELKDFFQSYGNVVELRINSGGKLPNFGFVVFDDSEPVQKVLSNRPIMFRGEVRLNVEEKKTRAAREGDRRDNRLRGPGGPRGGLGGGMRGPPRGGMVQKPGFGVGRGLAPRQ
With `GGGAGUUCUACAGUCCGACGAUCACCAUGCAGGUGGGCAUCUUUGGGAAGUGGGGCAAGGGAAAGAUAGGGAGGGGGGUAACACUUUGGGAACAGGUGGUCCCAGGUCGUUUCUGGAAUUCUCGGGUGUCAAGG` the log2 enrichment was -1.2.
The log2 enrichment of `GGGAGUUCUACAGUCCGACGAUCUGGGAGGUGGAUUUUGUUUAUUUUUUUAGCUCAUUUCCAGGGGUGGGAAUUUUUUUUUAAUAAGUGUCAUGAAUAAAGUUGUUUUUGAAAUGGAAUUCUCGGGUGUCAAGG` is reported as 3.53.
`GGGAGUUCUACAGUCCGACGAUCCACAGACAACACGCACCCACACAGACACAGAGGGAAGGGGUUGGGAUGGGGACAGCGUGCACAGCAGGGCGGGGUAGGACCCCAGCCCCUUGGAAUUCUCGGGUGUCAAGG` gave a log2 enrichment of -0.558.
`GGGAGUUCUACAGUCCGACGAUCCUGUGCUACACAUCGUAUGUACCGAAUCGGGGUUUUUUUGGGUUUUUUUGGUUUUUUUGGGGAAAGUAUUAUGUUACGCCGUUCGGAUCUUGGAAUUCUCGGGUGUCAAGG` gave a log2 enrichment of -1.29.
With `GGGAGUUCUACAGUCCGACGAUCGUCCUGUGCUACACAUCGUAUGUACCGAAUCGGGGAAAAAAAGGGGUUUGGGGAGGGGAAAGUAUUAUGUUACGCCGUUCGGAUCUGCACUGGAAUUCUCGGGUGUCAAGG` the log2 enrichment was 2.55.
`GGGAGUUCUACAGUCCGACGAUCCUCAAGUCCUGUGCUACACAUCGUAUGUACCGAAUCGGUUUUUGGAGGUUUGGAAAGUAUUAUGUUACGCCGUUCGGAUCUGCACUUCCAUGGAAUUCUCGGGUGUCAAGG` has a log2 enrichment of -1.11.
With `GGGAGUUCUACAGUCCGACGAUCAGUCCUGUGCUACACAUCGUAUGUACCGAAUCGGGUUUUUGGGUUUUUGGUUUUUGGGAAAGUAUUAUGUUACGCCGUUCGGAUCUGCACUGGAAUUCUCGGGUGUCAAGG` the log2 enrichment was -1.57.
For `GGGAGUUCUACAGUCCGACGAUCCAAGUCCUGUGCUACACAUCGUAUGUACCGAAUCGGUUUUGGUUUUGGUUUUGGGAAAGUAUUAUGUUACGCCGUUCGGAUCUGCACUUCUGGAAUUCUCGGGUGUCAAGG`, the log2 enrichment was -1.72.
The log2 enrichment of `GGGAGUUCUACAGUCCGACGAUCCACAGACAACACGCACCCACACAGACACAGAGGGAAGGGGUUGGGAUGGGGACAGGGUGCACAGCAGGGCGGGGUAGGACCCCAGCCCCGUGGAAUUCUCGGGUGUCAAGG` is reported as -0.853.
`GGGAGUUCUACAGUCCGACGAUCUGGCCCUGGUGGCAUGCGGGGAGGAUGAGGUGGCCUCAUGGAUCGUGGUGGUCCCGGUGGAAUGUUCAGAGGUGGCCGUGGUGGAGACAGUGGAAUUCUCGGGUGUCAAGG` has a log2 enrichment of 2.18.

Sample 3 — method: aptamer microarray, sandwich; molecule type: DNA with 2'F-ANA; matrix: in vitro; concentration: 200 nM; with: Cy3 exosite-II aptamer, 400 nM; direction: higher = stronger binding; strand: GGTTGGTGTGGTTGG
Target: Prothrombin, mature alpha-thrombin (F2, Homo sapiens, UniProt P00734)
Setting: whole 15-mer aptamer, many near background
Under “mean fluorescence intensity”, `2'F-ANA at 2 4 5 6 7 8 9 10 13 15` is recorded as 47.3 a.u.
`2'F-ANA at 6 10 11 12 14`: “mean fluorescence intensity” 118 a.u.
Under “mean fluorescence intensity”, `2'F-ANA at 1 5 6 7 8 9 10 11` is recorded as 49.6 a.u.
`2'F-ANA at 6 7 8 11 13 15` — result for “mean fluorescence intensity”: 434 a.u.
`2'F-ANA at 2 3 4 7 8 12`: “mean fluorescence intensity” 940 a.u.
`2'F-ANA at 2 6 7 8 13 15`: “mean fluorescence intensity” 326 a.u.
Under “mean fluorescence intensity”, `2'F-ANA at 1 4 6 7 8 11 12 15` is recorded as 244 a.u.
`2'F-ANA at 2 5 8 9 11 13 15` — result for “mean fluorescence intensity”: 59.2 a.u.
For `2'F-ANA at 2 3 5 6 8 9 11`, “mean fluorescence intensity” read 101 a.u.
For `2'F-ANA at 1 3 4 5 7 8 9 10 11 12 14 15`, “mean fluorescence intensity” read 48 a.u.
`2'F-ANA at 1 2 3 5 7 8 10 11 13 14` — result for “mean fluorescence intensity”: 46.5 a.u.
`2'F-ANA at 1 3 6 8 9 10 11 12 13 14 15` — result for “mean fluorescence intensity”: 65.8 a.u.
Under “mean fluorescence intensity”, `2'F-ANA at 2 3 4 5 6 7 10 11 12 14 15` is recorded as 62.6 a.u.
For `2'F-ANA at 1 2 4 5 8`, “mean fluorescence intensity” read 64.1 a.u.
For `2'F-ANA at 5 8 10 12`, “mean fluorescence intensity” read 48.1 a.u.
`2'F-ANA at 1 2 3 5 7 8 9 10 12 13 15`: “mean fluorescence intensity” 48.2 a.u.
`2'F-ANA at 2 3 4 7 11 12 13 14`: “mean fluorescence intensity” 316 a.u.
Under “mean fluorescence intensity”, `2'F-ANA at 2 3 7 9 11 13 14 15` is recorded as 331 a.u.
Under “mean fluorescence intensity”, `2'F-ANA at 1 5 6 7 10 12 13 14` is recorded as 49.7 a.u.
Under “mean fluorescence intensity”, `2'F-ANA at 5 7 9 11 12 13 15` is recorded as 93.7 a.u.
`2'F-ANA at 1 3 5 9 11 12 13 14 15`: “mean fluorescence intensity” 47.4 a.u.
`2'F-ANA at 1 3 6 8 11 12 14 15`: “mean fluorescence intensity” 114 a.u.

Sample 4 — method: protein binding microarray; molecule type: double-stranded DNA, one strand shown; matrix: in vitro; concentration: not given; baseline: not given; direction: higher = stronger binding
Target: Histone acetyltransferase KAT6A, winged helix 1, GST fusion (KAT6A, Homo sapiens, UniProt Q92794, residues 1-85)
Setting: 8-mer, flanks averaged, mean of 2 arrays, mostly near background
Construct (chain): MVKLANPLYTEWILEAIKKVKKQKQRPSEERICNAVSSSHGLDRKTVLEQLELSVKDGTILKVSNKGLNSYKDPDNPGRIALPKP
The E-score of `CGTGACGC` is reported as 0.231.
The E-score of `GGGGGATA` is reported as -0.0578.
For `AAATTTGT`, the E-score was -0.248.
With `ACGGAGTA` the E-score was 0.169.
With `CCTGACGC` the E-score was 0.0604.
`TTAGGAAA` has an E-score of -0.121.
`GTAAGCTA` has an E-score of -0.0248.
`AGTCGAGA` gave an E-score of -0.182.
`CGCACACC` has an E-score of 0.251.
`GGTGTGTA` gave an E-score of -0.109.
The E-score of `CCCAAATA` is reported as -0.349.
For `ATGGCCTG`, the E-score was -0.159.
`GATTTTGA` gave an E-score of -0.163.
The E-score of `GATGCCTA` is reported as -0.185.
With `ACTGTCTG` the E-score was -0.122.
With `AGATAAAG` the E-score was -0.0324.
The E-score of `GCGGGCTA` is reported as 0.225.
The E-score of `CTGGATGA` is reported as -0.249.
With `GTCATAGA` the E-score was -0.0323.
For `AACGATAA`, the E-score was 0.0232.
With `AGAACTCT` the E-score was -0.192.
